# Published values collected from several papers.
# Values joined by “and” are separate records of one study, mostly repeats; a detail may differ. ± marks the error that the study gave.
Compound,cell line,test,system,setting,how to read,measurement,value
[Cl][Cd][Cl],HepaRG,,,"concentration not given, highest tested concentration",baseline: vehicle,micronucleus fold increase,0.8 fold
Fc1cccc(Nc2ccc3ncc(OCC4CCNCC4)nc3c2)c1,MOLM-13,"cell growth, XTT",,7 d,,EC50,8.6 µM
CC(c1ccccc1)(c1ccc(O)cc1)c1ccc(O)cc1,HepG2 spheroids,annexin V-FITC/PI flow cytometry,,"0.1 µM, 24 h",,necrotic cells,5.96 ± 1.8%
CC(C)C[C@H](NC(=O)OCc1ccccc1)C(=O)N[C@H](C=O)C[C@@H]1CCCNC1=O,Huh-7,cytotoxicity,,,,CC50,> 100 µM
CCCCN(CCCC)CCCNC(=O)c1ccc2nc(N3CCCCC3)sc2c1,Vero-E6,CellTiter-Glo ATP,,"concentration not given, 72 h, retest 8-point duplicates","baseline: DMSO 0%, hyamine -100%, more negative, more toxic",cytotoxicity efficacy,0%
Cc1noc(C)c1Nc1ccnc2ccc(-c3ccc(S(=O)(=O)N4CCOCC4)cc3)cc12,NIH 3T3,"cytotoxicity, PrestoBlue",,"96 h, 2% FBS",,TC50,> 20 µM
CN1CCCN(S(=O)(=O)c2ccc(-c3ccc4nccc(Nc5ccc(OCc6cccc(F)c6)c(Cl)c5)c4c3)cc2)CC1,NIH 3T3,PrestoBlue,2% FBS medium,96 h,,TC50,18 µM
N.N.[Cl][Pt][Cl],HepaRG,,,"maximum tested, 24 h, 72 h recovery",baseline: vehicle,relative survival,44%
COc1ccc([C@H]2OC[C@H](Cc3ccc(C(C)(C)C)cc3)[C@@H]2CO)cc1OC,rat aortic VSMCs,,,"30 µM, 24.5 h",,LDH release,14.1 ± 7.1%
CN1CCCN(S(=O)(=O)c2ccc(-c3ccc4c(Nc5ccc(OCc6cccc(F)c6)c(Cl)c5)ccnc4c3)cc2)CC1,NIH 3T3,PrestoBlue,2% FBS medium,96 h,,TC50,11 µM
COCCCNC(=O)C1CCN(Cc2cc3ccccc3n2Cc2cccc(Cl)c2)CC1,Vero-E6,CellTiter-Glo ATP,,"concentration not given, 72 h, second round 5-point","baseline: DMSO 0%, hyamine -100%, more negative, more toxic",cytotoxicity efficacy,0%
CC(C)CC(=O)OC[C@H]1O[C@@](C#N)(c2ccc3c(N)ncnn23)[C@H](O)[C@@H]1O,rat hepatocytes,,,"5 µM, 15 min",,remaining compound,0%
C=CC(=O)Nc1ccccc1CN(C(=O)Nc1cccc(C(F)(F)F)c1)C1CCN(C(C)CCC)CC1 (centres unmarked),HCC95 cells,CellTiter-Glo,,,,LD50,36.4 µM
Cc1c(Cl)cccc1-c1ccc(CNCCSc2nnnn2-c2ccccc2)o1,Vero-E6,CellTiter-Glo ATP,,"concentration not given, 72 h, first round 5-point","baseline: DMSO 0%, hyamine -100%, more negative, more toxic",cytotoxicity efficacy,0%
CC(C)C[C@@H](N)C(=O)N[C@H](Cc1ccccc1)C(=O)N[C@H](Cc1ccccc1)C(=O)N[C@H](C)C(N)=O,NGF-differentiated PC-12 neurons,,,"40 µM, 24 h",baseline: untreated,viability,90.2%
CC1=CC(=O)c2c(O)cccc2C1=O,MRC-5,"cytotoxicity, MTT",,"48 h, 10% FBS",,IC50,5 ± 0.08 µM
O=c1ccc2ccccc2o1,HepG2,measured: HIF1alpha,,"24 h, inflammation and pH panel",,point of departure,849 µM
CC[C@H](C)[C@H](NC(=O)[C@H](CCCNC(=N)N)NC(=O)[C@@H]1CCCN1C(=O)[C@H](CCCNC(=N)N)NC(=O)[C@@H](N)CCCNC(=N)N)C(=O)N[C@@H](Cc1c[nH]cn1)C(=O)N[C@@H](Cc1ccccc1)C(=O)N[C@@H](CCCNC(=N)N)C(=O)N[C@@H](Cc1ccccc1)C(=O)N1CCC[C@H]1C(=O)N[C@@H](CC(N)=O)C(=O)N[C@@H](CCCNC(=N)N)C(=O)N1CCC[C@H]1C(=O)N[C@@H](Cc1ccccc1)C(=O)N[C@H](C(=O)N1CCC[C@H]1C(=O)N[C@@H](CO)C(=O)N[C@@H](CCCNC(=N)N)C(=O)N[C@@H](CS)C(=O)N[C@@H](CC(N)=O)C(=O)N[C@@H](Cc1c[nH]cn1)C(=O)N[C@@H](CCCNC(=N)N)C(=O)N[C@@H](Cc1ccccc1)C(=O)N1CCC[C@H]1C(=O)N[C@@H](Cc1ccccc1)C(=O)N[C@@H](CCC(N)=O)C(=O)N1CCC[C@H]1C(=O)N[C@@H](Cc1ccccc1)C(=O)N[C@@H](Cc1ccc(O)cc1)C(=O)N[C@@H](Cc1c[nH]c2ccccc12)C(=O)N1CCC[C@H]1C(=O)N[C@@H](Cc1c[nH]cn1)C(=O)N[C@@H](CCCNC(=N)N)C(=O)N[C@@H](Cc1ccc(O)cc1)C(=O)N[C@@H](CC(C)C)C(=O)N[C@H](C(=O)N[C@@H](Cc1ccc(O)cc1)C(=O)N[C@@H](CCCNC(=N)N)C(=O)N[C@@H](Cc1ccc(O)cc1)C(=O)N[C@@H](Cc1ccccc1)C(=O)N1CCC[C@H]1C(=O)N[C@@H](CCCNC(=N)N)C(=O)N[C@@H](CCCNC(=N)N)C(=O)N[C@@H](CCCNC(=N)N)C(=O)N[C@@H](CC(C)C)C(=O)N[C@@H](CCC(N)=O)C(=O)N[C@@H](CCCNC(=N)N)C(=O)O)[C@@H](C)O)C(C)C,"THP-1, PMA-differentiated","cell viability, MTT",,,,CC50,51.7 µM
COc1cc2c(cc1OCC1CC1)NC(=O)C21CCN(c2cc(NC3CC3)ncn2)CC1,Vero-E6,CellTiter-Glo ATP,,"concentration not given, 72 h, first round 5-point","baseline: DMSO 0%, hyamine -100%, more negative, more toxic",cytotoxicity efficacy,0%
O=S(=O)(c1ccc(-c2ccc3nccc(Nc4ccc5[nH]nnc5c4)c3c2)cc1)N1CCOCC1,NIH 3T3,"cytotoxicity, PrestoBlue",,"96 h, 2% FBS",,TC50,> 20 µM
CN(C)N=O,HepaRG,,,maximum tested,,micronucleated cells,2.2%
COc1ccc(Nc2nn3c(-c4ccccc4)ccnc3c2C(=O)Nc2ccccc2)cc1,WI-38,MTT,serum-free medium,"250.00 µg/mL, 48 h",,viability,55.4%
CCc1ccc(Sc2cc(C(=O)NCCCN3CCC(C)CC3)c3ccccc3n2)cc1,Vero-E6,CellTiter-Glo ATP,,"72 h, retest 8-point duplicates","baseline: DMSO 0%, hyamine -100%, more negative, more toxic",maximum response,-31.6%
Cc1ccc(-c2nn3c(Cn4cnc5ccccc54)nnc3s2)cc1C,HEp-2,cytotoxicity,,,,CC50,89.6 µM
CC(C)C[C@@H](N)C(=O)N[C@H](CC(C)C)C(=O)N[C@H](Cc1ccccc1)C(=O)N[C@H](Cc1ccccc1)C(N)=O,NGF-differentiated PC-12 neurons,,,"5 µM, 24 h",baseline: untreated,viability,65.3%
CC(C)(c1ccc(O)cc1)c1ccc(O)cc1,"HepG2 spheroids, dissociated",annexin V-FITC/PI flow cytometry,,"0.10 µM, 96 h",,early apoptotic cells,6.2 ± 4.03%
Cc1ccc2[nH]c3c(c2c1)CCCC3NCCc1ccc(Br)cc1 (centres unmarked),A549,,,"50 µM, 23 h",,non-viable cells,28.4 ± 24.5%
CC(C)C[C@@H](NC(=O)[C@H](N)CCCCN)C(=O)N[C@@H](C(=O)N[C@H](Cc1ccccc1)C(=O)N[C@H](Cc1ccccc1)C(N)=O)C(C)C,NGF-differentiated PC-12 neurons,,,"160 µM, 24 h",baseline: untreated,viability,100%
COc1ccc(Nc2ccnc3ccc(-c4ccc(S(=O)(=O)N5CCOCC5)cc4)cc23)cc1Cl,NIH 3T3,"cytotoxicity, PrestoBlue",,"96 h, 2% FBS",,TC50,> 20 µM
CC(C)C[C@@H](NC(=O)[C@H](N)CCCCN)C(=O)N[C@H](CC(C)C)C(=O)N[C@H](Cc1ccccc1)C(=O)N[C@H](Cc1ccccc1)C(=O)N[C@H](C)C(=O)N[C@H](CCC(=O)O)C(N)=O,NGF-differentiated PC-12 neurons,,,"80 µM, 24 h",baseline: untreated,viability,99%
O=NN1CC2CC(C1)c1cc3nccnc3cc12,TK6,,,"20 µM, 4 h, together with: hamster liver S9",baseline: vehicle,relative survival,112%
CC(C)Cc1cc(-c2nn3c(Cn4cnc5ccccc54)nnc3s2)n[nH]1,HEp-2,cytotoxicity,,,,CC50,> 100 µM
O=S(=O)(c1ccc(-c2ccc3ncccc3c2)cc1)N1CCOCC1,NIH 3T3,"cytotoxicity, PrestoBlue",,"96 h, 2% FBS",,TC50,> 20 µM
CN(CCC=C1c2ccccc2CCc2ccccc21)N=O,TK6,,,"2.5 µM, 4 h, together with: hamster liver S9",baseline: vehicle,relative survival,71.8%
N#Cc1cnc(Nc2ccnc3ccc(-c4ccc(S(=O)(=O)N5CCOCC5)cc4)cc23)cn1,NIH 3T3,"cytotoxicity, PrestoBlue",,"96 h, 2% FBS",,TC50,> 20 µM
CC(C)C[C@@H](N)C(=O)N[C@H](Cc1ccccc1)C(=O)N[C@H](Cc1ccccc1)C(=O)N[C@H](C)C(=O)N[C@H](CCC(=O)O)C(N)=O,NGF-differentiated PC-12 neurons,,,"5 µM, 24 h",baseline: untreated,viability,89%
CC(C)C[C@H](NC(=O)[C@H](C)NC(=O)[C@@H](NC(=O)[C@H](CCCNC(=N)N)NC(=O)[C@H](CC(C)C)NC(=O)[C@H](Cc1c[nH]c2ccccc12)NC(=O)[C@@H]1CCCN1C(=O)[C@@H](N)CCCCN)C(C)C)C(=O)N[C@@H](CS)C(=O)N1CCC[C@H]1C(=O)NCC(=O)O,A549,WST-1,,"16 µM, 24 h",,viability,93.1% and 83.7% and 77.6%
CCCCCCCCCCCCOS(=O)(=O)[O-].[Na+],THP-1,MTT,,50 µM,,cytotoxicity,not toxic
CN1CCCC2(C1)CN(Cc1cccnc1)c1ccc(C(=O)NCC3CCCCC3)cc12 (centres unmarked),Vero-E6,CellTiter-Glo ATP,,"72 h, retest 8-point duplicates","baseline: DMSO 0%, hyamine -100%, more negative, more toxic",maximum response,-3.81%
c1ccc2oc(-c3nn4c(Cn5nnc6ccccc65)nnc4s3)cc2c1,HEp-2,cytotoxicity,,,,CC50,> 100 µM
CCN(N=O)C(N)=O,HepaRG,,,"maximum tested, 24 (unit not given)",,micronucleated cells,2%
CC(C)C[C@@H](NC(=O)[C@H](N)CCCCN)C(=O)N[C@H](CC(C)C)C(=O)N[C@H](Cc1ccccc1)C(=O)N[C@H](Cc1ccccc1)C(=O)N[C@H](C)C(N)=O,NGF-differentiated PC-12 neurons,,,"40 µM, 24 h",baseline: untreated,viability,95.6%
Cc1nc2ccccc2n1Cc1nnc2sc(-c3cccnc3)nn12,HEp-2,cytotoxicity,,,,CC50,60.7 µM
O=C(NCc1cccs1)C1CCCN(Cc2cccc(-c3ccc(F)cc3F)c2)C1 (centres unmarked),Vero-E6,CellTiter-Glo ATP,,"concentration not given, 72 h, first round 5-point","baseline: DMSO 0%, hyamine -100%, more negative, more toxic",cytotoxicity efficacy,0%
CC(C)C[C@@H](NC(=O)[C@H](N)CCCCN)C(=O)N1CCC[C@@H]1C(=O)N[C@H](Cc1ccccc1)C(=O)N[C@H](Cc1ccccc1)C(=O)N[C@H](C)C(N)=O,NGF-differentiated PC-12 neurons,,,"10 µM, 24 h",baseline: untreated,viability,99.1%
COc1ccc2c(Sc3ccc(Cl)cc3)c(C(=O)NCCCN3CCCCC3)[nH]c2c1,Vero-E6,CellTiter-Glo ATP,,"concentration not given, 72 h, second round 5-point","baseline: DMSO 0%, hyamine -100%, more negative, more toxic",cytotoxicity efficacy,11.5%
Cc1cc(C(C)(C)c2ccc(O)c(C)c2)ccc1O,"HepG2 spheroids, dissociated",annexin V-FITC/PI flow cytometry,,"1 µM, 96 h",,viable cells,38.1 ± 9.63%
CC(C)C[C@@H](NC(=O)[C@H](N)CCCCN)C(=O)N1CCC[C@@H]1C(=O)N[C@H](Cc1ccccc1)C(=O)N[C@H](Cc1ccccc1)C(=O)N[C@H](C)C(=O)N[C@H](CCC(=O)O)C(N)=O,NGF-differentiated PC-12 neurons,,,"40 µM, 24 h",baseline: untreated,viability,91.5%
O=[N+]([O-])c1ccc(-c2nn(-c3ccccc3)c3sc(NC(c4ccccc4O)P(=O)(Oc4ccccc4)Oc4ccccc4)nc23)cc1 (centres unmarked),BNL mouse liver cells,SRB,,"10 µM, 10% fetal bovine serum",,viability,95.6%
Oc1ccc(C(c2ccc(O)cc2)(C(F)(F)F)C(F)(F)F)cc1,"HepG2 spheroids, dissociated",annexin V-FITC/PI flow cytometry,,"10 µM, 96 h",,late apoptotic cells,30.5 ± 4.6%

# For quick reference, copied from above:
Compound,cell line,test,system,setting,how to read,measurement,value
CC(C)C[C@@H](NC(=O)[C@H](N)CCCCN)C(=O)N1CCC[C@@H]1C(=O)N[C@H](Cc1ccccc1)C(=O)N[C@H](Cc1ccccc1)C(=O)N[C@H](C)C(=O)N[C@H](CCC(=O)O)C(N)=O,NGF-differentiated PC-12 neurons,,,"40 µM, 24 h",baseline: untreated,viability,91.5%
CC(C)C[C@@H](NC(=O)[C@H](N)CCCCN)C(=O)N[C@H](CC(C)C)C(=O)N[C@H](Cc1ccccc1)C(=O)N[C@H](Cc1ccccc1)C(=O)N[C@H](C)C(N)=O,NGF-differentiated PC-12 neurons,,,"40 µM, 24 h",baseline: untreated,viability,95.6%
CN1CCCN(S(=O)(=O)c2ccc(-c3ccc4c(Nc5ccc(OCc6cccc(F)c6)c(Cl)c5)ccnc4c3)cc2)CC1,NIH 3T3,PrestoBlue,2% FBS medium,96 h,,TC50,11 µM
CCN(N=O)C(N)=O,HepaRG,,,"maximum tested, 24 (unit not given)",,micronucleated cells,2%
COc1ccc(Nc2ccnc3ccc(-c4ccc(S(=O)(=O)N5CCOCC5)cc4)cc23)cc1Cl,NIH 3T3,"cytotoxicity, PrestoBlue",,"96 h, 2% FBS",,TC50,> 20 µM
CC1=CC(=O)c2c(O)cccc2C1=O,MRC-5,"cytotoxicity, MTT",,"48 h, 10% FBS",,IC50,5 ± 0.08 µM
